Measured values from different studies.
Lines come from different studies, so protocols differ. Values joined by “and” are separate records of one study, mostly repeats; a detail may differ. ± gives the spread as reported.

Cc1cc(=O)c2c(O)c3c(O[C@@H]4O[C@H](CO)[C@@H](O)[C@H](O)[C@H]4O)cc(O)cc3cc2o1  cell viability (HK-2 co-cultured with HepaRG; MTT; 66.67 µM, 48 h; reference: untreated control): 84.2 ± 7.96%
O=S(=O)(O)SC(CNC1CCCCC1)c1ccccc1 (stereo not shown)  body weight (Schistosoma mansoni; infected Swiss Webster mice; oral, 150 mg/kg daily x4, dosed from day 21, perfusion day 36): 29.8 g and 31.8 g and 30.9 g
CNC(=O)C1CCCN(C(=O)C2CC3CCC2N3C(=O)[C@@H]2C[C@@H](O)CN2C(=O)NCc2cccc(Cl)c2F)C1 (mixture of isomers)  remaining activity (CYP3A4 (human); inhibitor, time-dependent inhibition; 50 µM, preincubated without NADPH, with: testosterone substrate; reference: negative control): 101%
CC(C)OCCOCc1ccc(OCC(O)CN(N=O)C(C)C)cc1 (stereo not shown)  revertant fold increase (Salmonella typhimurium; Ames test; TA100; 5 µg/plate, 30 % hamster S9; reference: solvent control): 1.1 fold
O=C1NC2(CC2)COc2ncc(F)cc2[C@H]2COCCN2c2ccn3ncc1c3n2  cells with chromosome gaps (CHL cells; chromosomal aberration test; 20 µg/mL, 24 h, without S9 mix): 0.7%
N#C[C@@H]1CCCN1C(=O)CNC(=O)c1ccnc2ccc(OCCCN3CCN(C(=O)CCc4ccc5c(c4)CN4CCN(Cc6cc(CCC(=O)O)ccc6O)CC(=O)[O][Al-]([18F])([O]C(=O)C4)[O]5)CC3)cc12 (stereo partly shown)  tracer uptake (U-87 MG tumour model; host not given, stomach; 1 h, tumour-bearing): 1.32 %ID/g
CCCCCC[C@@H](CSS(=O)(=O)O)NCCC  body weight (Schistosoma mansoni; perfusion day 57; infected Swiss Webster mice; 100 mg/kg): 33.7 g and 32 g and 33 g
O=C1C2CC3CC1CC(C(=O)N1CCN(c4ccc([N+](=O)[O-])c5ncccc45)CC1)(C3)C2  mean revertant colonies (Salmonella typhimurium; Ames test; TA97a; 0.05 µg/well, with S9): 22 colonies/well
CC[C@H](C)[C@@H]1NC(=O)[C@H](Cc2ccc(O)cc2)NC(=O)CCCSC[C@@H](C(=O)N(CC(=O)N[C@@H](CC(C)C)C(=O)NCC(N)=O)Cc2ccc(F)cc2)NC(=O)[C@H](CC(N)=O)NC(=O)[C@H](CCC(N)=O)NC1=O  subjects with any TEAE (human; intranasal, 400 µg single dose): 50%
N#C[C@@H]1CC(F)(F)CN1C(=O)CNC(=O)c1ccnc2c(NC(=O)CCOCCOCCOCCOCCOCCOCCNC(=O)[C@H](CCCCNC(=O)CN3CCN(CC(=O)[O-])CCN(CC(=O)[O-])CCN(CC(=O)[O-])CC3)NC(=O)CCCc3ccc(I)cc3)cccc12.[177Lu+3]  tracer uptake (U-87 MG tumour model; host not given, tumour; 4 h, tumour-bearing): 6.68 %ID/g
CCN(CC)CC#CCNc1ccnc2cc(Cl)ccc12  revertants (Salmonella typhimurium; mini-Ames test; TA102; 1000.0 µg/well, with rat liver S9): 84 revertants/well and 76 revertants/well
CC(C)Cc1ccc(C(C)C(=O)N[C@@H](CCCCNC(=O)CCOCCOCCOCCOCCOCCOCCNC(=O)CN2CCN(CC(=O)[O-])CCN(CC(=O)[O-])CCN(CC(=O)[O-])CC2)C(=O)Nc2cccc3c(C(=O)NCC(=O)N4CC(F)(F)C[C@H]4C#N)ccnc23)cc1.[177Lu+3] (stereo partly shown)  tracer uptake (U-87 MG tumour model; host not given, blood; 1 h, tumour-bearing): 14 %ID/g
COc1cccc(OC)c1-c1cc(C(=O)NC2(C(=O)O)C3CC4CC(C3)CC2C4)nn1-c1ccc(C(=O)N(C)CCOCCOCCN(C)C(=O)[C@H](CCCCNC(=O)[C@H](CC(C)C)NC(=O)C2OC2C(=O)O)NC(=O)CN2CCN(CC(=O)[O-])CCN(CC(=O)[O-])CCN(CC(=O)[O-])CC2)cc1C(C)C.[177Lu+3] (mixture of isomers)  tracer uptake (HT-29 tumour model; host not given, blood; 72 h, tumour-bearing): 0.13 %ID/g
CN1CCCNC(=O)c2cccc(c2)C(=O)NCCCN(C)CCCNc2cccc3c2C(=O)c2cccc(c2C3=O)NCCC1  viability (HEK293; cell growth or viability, CCK-8; 50 nM, 48 h): 98.7%
CCCCNC(CCCC)CSS(=O)(=O)O (stereo not shown)  body weight (Schistosoma mansoni; perfusion day 35; infected Swiss Webster mice; 100 mg/kg): 28.7 g and 27.9 g and 27.6 g
C=C(NC(=O)c1csc(-c2nc3c(cc2O)-c2nc(cs2)C(=O)NC(C(C)O)C(=O)NC(=C(C)OC)c2nc(cs2)C(=O)NC2c4nc(cs4)C(=O)NC(COC(=O)c4c5c6c(cccc6n4O)COC(=O)C(OC4CC(C)(O)C(N(C)C)C(C)O4)C2OC5)c2nc-3cs2)n1)C(N)=O (stereo not shown)  AUC(0-inf) (male cynomolgus monkey, plasma; intravenous, 9 mg/kg, single dose, infusion): 47.6 µg·h/mL
N#C[C@@H]1CC(F)(F)CN1C(=O)CNC(=O)c1ccnc2c(NC(=O)[C@H](CCCCNC(=O)CCOCCOCCOCCOCCOCCOCCNC(=O)CN3CCN(CC(=O)[O-])CCN(CC(=O)[O-])CCN(CC(=O)[O-])CC3)NC(=O)CCCc3ccc(I)cc3)cccc12.[177Lu+3]  tracer uptake (U-87 MG tumour model; host not given, bone; 48 h, tumour-bearing): 0.95 %ID/g
O=C(Nc1cnccc1-c1ccc([18F])nc1)c1ccnc(NC(=O)C2CC2)c1  SUV (FVB/NJ mice, both sexes, liver; intravenous, 20 min, median, no P-gp inhibitor): 8.96
CC(C)NCC(SS(=O)(=O)O)c1ccccc1 (stereo not shown)  body weight (Schistosoma mansoni; perfusion day 62; infected Swiss Webster mice; 100 mg/kg): 32.5 g and 32 g and 34.6 g
